Experimental data collected from several papers.
Lines come from different studies, so protocols differ. Values joined by “and” are separate records of one study, mostly repeats; a detail may differ. ± marks the error that the study gave.

Structure (SMILES) | tested on | test | test system | setting | how to read | measurement | result
COC1OC(C)C(OC2OC(C)C(O)C(OC3OC(C)C(OC4OC(C)C(O)C(OC5OC(C)C(OC6OC(C)C(O)C(OC7OC(C)C(OC8OC(C)C(O)C(OC9OC(C)C(O)C(OS(=O)(=O)O)C9OS(=O)(=O)O)C8OS(=O)(=O)O)C(OS(=O)(=O)O)C7OS(=O)(=O)O)C6OS(=O)(=O)O)C(OS(=O)(=O)O)C5OS(=O)(=O)O)C4OS(=O)(=O)O)C(OS(=O)(=O)O)C3OS(=O)(=O)O)C2OS(=O)(=O)O)C(OS(=O)(=O)O)C1OS(=O)(=O)O (stereo not drawn) |  |  | human plasma | 16 µg/mL |  | activated partial thromboplastin time | 53.5 s and 53.6 s and 53.2 s
O=C([O-])CN1CCN(CC(=O)[O-])CCN(CC(=O)c2ccc(-c3ccc(OCC(=O)O)cc3)cc2)CCN(CC(=O)[O-])CC1.[Gd+3] |  |  | mouse serum | 0.3 mM, 25 °C, 7 T |  | T1 relaxation time | 558 ms
COC1OC(C)C(OS(=O)(=O)O)C(OC2OC(C)C(OS(=O)(=O)O)C(OC3OC(C)C(OS(=O)(=O)O)C(OC4OC(C)C(OS(=O)(=O)O)C(OC5OC(C)C(OS(=O)(=O)O)C(OC6OC(C)C(OS(=O)(=O)O)C(OC7OC(C)C(OS(=O)(=O)O)C(OS(=O)(=O)O)C7OS(=O)(=O)O)C6OS(=O)(=O)O)C5OS(=O)(=O)O)C4OS(=O)(=O)O)C3OS(=O)(=O)O)C2OS(=O)(=O)O)C1OS(=O)(=O)O (stereo not drawn) |  |  | human plasma | 64 µg/mL |  | activated partial thromboplastin time | 150 s and 143 s and 148 s
Cc1ccc(NC(=O)NCc2ccc3c(c2)CN(C2CCC(=O)NC2=O)C3=O)cc1Cl (stereo not drawn) |  | deuterium-hydrogen exchange | aqueous phosphate buffer | pH 7.4, 37 °C |  | exchange rate constant | -0.0206 h⁻¹
COC1CN([C@H]2CC[C@H]([C@@]3(C)Oc4c(Cl)cc(C(=O)NCc5c(SC)cc(C)[nH]c5=O)c(C)c4O3)CC2)C1 |  | RNA-seq, item: PALM | human cancer patients, whole blood | dose not given, 24 h, PRC2 target gene | baseline: pretreatment sample | log2 fold change | 4.84
Nc1ncc(-c2cc(-c3cnn(CC(F)(F)F)c3)ncc2F)nc1C(=O)NC1CNCC(F)C1 (stereo not drawn) | CAMK2A | KINOMEscan |  | 1 µM | baseline: DMSO control | remaining binding | 100%
COC1OC(C)C(OC2OC(C)C(OS(=O)(=O)O)C(OC3OC(C)C(OS(=O)(=O)O)C(OS(=O)(=O)O)C3OS(=O)(=O)O)C2OS(=O)(=O)O)C(OS(=O)(=O)O)C1OS(=O)(=O)O (stereo not drawn) |  |  | human plasma | 128 µg/mL |  | activated partial thromboplastin time | 54.7 ± 0.8 s
CC(=O)N1c2ccc(-c3ccc(CNC(=O)c4cn5cc(-c6cnc(N)nc6)nc(N6CCOCC6)c5n4)cc3)cc2CC[C@@H]1C |  |  | mouse, Vk*MYC myeloma transplant | dose not given, 18 d | baseline: mice | paraprotein response | 81%
COC1OC(C)C(OC2OC(C)C(O)C(OC3OC(C)C(OC4OC(C)C(O)C(OC5OC(C)C(OC6OC(C)C(O)C(OC7OC(C)C(O)C(OS(=O)(=O)O)C7OS(=O)(=O)O)C6OS(=O)(=O)O)C(OS(=O)(=O)O)C5OS(=O)(=O)O)C4OS(=O)(=O)O)C(OS(=O)(=O)O)C3OS(=O)(=O)O)C2OS(=O)(=O)O)C(OS(=O)(=O)O)C1OS(=O)(=O)O (stereo not drawn) |  |  | human plasma | 16 µg/mL |  | activated partial thromboplastin time | 44.3 s and 44.4 s and 45.8 s
CC(=O)NCC(=O)N[C@@H](Cc1ccccc1)C(=O)N[C@@H](Cc1ccccc1)C(=O)N[C@@H](Cc1ccc(O)cc1)C(=O)NCC(=O)N[C@@H](Cc1ccc(O)cc1)C(=O)NCC(=O)N[C@@H](CO)C(=O)N[C@@H](CO)C(=O)N[C@@H](CO)C(=O)N[C@@H](CCCNC(=N)N)C(=O)N[C@@H](CCCNC(=N)N)C(=O)N[C@@H](C)C(=O)N1CCC[C@H]1C(=O)N[C@@H](CCC(N)=O)C(=O)N[C@H](C(=O)O)[C@@H](C)O |  |  | male C57BL/6 mice depilated | topical, 300 µL once daily, 2 µM, day 14 | baseline: control | skin pigmentation | increased
COC1OC(C)C(O)C(OC2OC(C)C(O)C(OS(=O)(=O)O)C2OS(=O)(=O)O)C1OS(=O)(=O)O (stereo not drawn) |  |  | human plasma | 128 µg/mL |  | activated partial thromboplastin time | 33.3 ± 0.5 s
CCCCCc1ccc(S(=O)(=O)N2CC2C(=O)OC)cc1 (stereo not drawn) |  |  | mouse, Lewis lung carcinoma | intraperitoneal, 5 mg/kg, 16 doses, day 13 |  | tumour growth inhibition | 73%
Nc1ncc(-c2ccc([C@H]3[C@@H](F)[C@@H](F)C[C@@H](F)[C@H]3F)cc2)cn1 |  | hepatocyte stability | cryopreserved mouse hepatocytes | 1 µM |  | hepatic clearance | 21 mL/min/kg
COc1cc(O)ccc1CCC(c1ccc(O)cc1)c1cc2c(c(C)c1O)OC(c1ccc(O)cc1)CC2 (mixture of isomers) |  |  | human blood | 0.3 µM, added: A23187 |  | TXB2 level | 587 ± 159 pg/mL
COCC1CN(C2CCN(c3cc(OC)c(Nc4ncc(Br)c(Nc5ccc6c(c5P(C)(C)=O)OCCO6)n4)cc3C)CC2)C1 |  | RECIST 1.1 | advanced EGFR-mutant NSCLC patients | 240 mg once daily |  | disease control rate | 0%
COc1ccc(NC(=O)c2ccc3[nH]c(-c4ccc(N(C)C)cc4)nc3c2)cn1 |  |  | CT26, BALB/c mice, subcutaneous syngeneic graft | dose not given, day 4 |  | tumour volume | 86.8 mm3 and 119 mm3 and 100 mm3 and 242 mm3
CC(=O)[O-].O.O.O.O.[Mn+2].[O-]c1ccc(Br)cc1C=NCCN1CCOCC1 |  | nitric oxide scavenging |  | 120 µM |  | inhibition | 19.4%
CC(CCC(=O)NCc1ccc(C(=O)NO)cc1)C1CCC2C3C(O)CC4CC(O)CCC4(C)C3CCC12C (stereo not drawn) |  | item: GUDCA | PCK rat (Pkhd1 mutant), portal blood | oral gavage, dose not given, 5 months | baseline: total bile acids | relative abundance | 1.72%
Nc1nc2cc(CC[C@H]3C[C@@H](n4ccc5c(N)ncnc54)[C@H](O)[C@@H]3O)ccc2cc1Br |  |  | NCI-H1048 xenograft, mouse | 3.0 mg/kg/day, day 28 |  | %ΔTGI | 75.6%
COC1OC(C)C(OC2OC(C)C(O)C(OC3OC(C)C(OC4OC(C)C(O)C(OC5OC(C)C(OC6OC(C)C(O)C(OC7OC(C)C(OC8OC(C)C(O)C(OC9OC(C)C(OC%10OC(C)C(O)C(OC%11OC(C)C(OC%12OC(C)C(O)C(OS(=O)(=O)O)C%12OS(=O)(=O)O)C(OS(=O)(=O)O)C%11OS(=O)(=O)O)C%10OS(=O)(=O)O)C(OS(=O)(=O)O)C9OS(=O)(=O)O)C8OS(=O)(=O)O)C(OS(=O)(=O)O)C7OS(=O)(=O)O)C6OS(=O)(=O)O)C(OS(=O)(=O)O)C5OS(=O)(=O)O)C4OS(=O)(=O)O)C(OS(=O)(=O)O)C3OS(=O)(=O)O)C2OS(=O)(=O)O)C(OS(=O)(=O)O)C1OS(=O)(=O)O (stereo not drawn) |  |  | human plasma | 16 µg/mL |  | activated partial thromboplastin time | 53 s and 51.6 s and 52.5 s
CN1CCC[C@]1(C)/C=C/S(=O)(=O)NC(=O)Nc1c2c(cc3c1CCC3)CCC2 |  |  | human, whole blood ex vivo | 12.5 mg twice daily, day 1, 12 h, multiple ascending dose, added: LPS and ATP |  | IL-1β inhibition | 81.2%
COC1OC(C)C(OC2OC(C)C(OS(=O)(=O)O)C(OC3OC(C)C(OC4OC(C)C(OS(=O)(=O)O)C(OC5OC(C)C(OC6OC(C)C(OS(=O)(=O)O)C(OC7OC(C)C(OS(=O)(=O)O)C(OS(=O)(=O)O)C7OS(=O)(=O)O)C6OS(=O)(=O)O)C(OS(=O)(=O)O)C5OS(=O)(=O)O)C4OS(=O)(=O)O)C(OS(=O)(=O)O)C3OS(=O)(=O)O)C2OS(=O)(=O)O)C(OS(=O)(=O)O)C1OS(=O)(=O)O (stereo not drawn) |  |  | human plasma | 16 µg/mL |  | activated partial thromboplastin time | 75.7 s and 77.5 s and 79.5 s
COc1cc2c(NC3CCN(C(C)C)CC3)cc(N3CCOCC3)nc2cc1OCCCN1CCCC1 |  | TMT proteomics, item: LDHB | 5xFAD mice, hippocampus | dose not given, unit not given | baseline: wild type | protein level difference | -0.0252
CN1CCC(c2ccc(-c3ccc([C@H]4[C@@H](F)[C@@H](F)C[C@@H](F)[C@H]4F)cc3)cn2)CC1 |  | hepatocyte stability | cryopreserved human hepatocytes | 1 µM |  | hepatic clearance | 9.5 mL/min/kg
COC1OC(C)C(OC2OC(C)C(OS(=O)(=O)O)C(OC3OC(C)C(OC4OC(C)C(OS(=O)(=O)O)C(OC5OC(C)C(OC6OC(C)C(OS(=O)(=O)O)C(OS(=O)(=O)O)C6OS(=O)(=O)O)C(OS(=O)(=O)O)C5OS(=O)(=O)O)C4OS(=O)(=O)O)C(OS(=O)(=O)O)C3OS(=O)(=O)O)C2OS(=O)(=O)O)C(OS(=O)(=O)O)C1OS(=O)(=O)O (stereo not drawn) |  |  | human plasma | 64 µg/mL |  | activated partial thromboplastin time | 118 s and 114 s and 109 s
Cc1[nH]nc2c1N=C(c1ccccc1Cl)c1cnc(N3CCOCC3)cc1N2 |  |  | mouse sample A TNBC PDX, sample B subtype | oral, 15 mg/kg, 5 days per week |  | tumour growth inhibition | 90%
Cc1ccc(N(O)/N=N/c2ccc(S(=O)(=O)Nc3nccs3)cc2)cc1 |  | ABTS scavenging |  | 20 µg/mL |  | inhibition | 43.8%

Excerpt of the above:
Structure (SMILES) | tested on | test | test system | setting | how to read | measurement | result
Nc1nc2cc(CC[C@H]3C[C@@H](n4ccc5c(N)ncnc54)[C@H](O)[C@@H]3O)ccc2cc1Br |  |  | NCI-H1048 xenograft, mouse | 3.0 mg/kg/day, day 28 |  | %ΔTGI | 75.6%
